Measurements from different studies.
Each numbered part is a random draw from the data of one study; scales do not carry over between parts. Substitutions count along the parent as printed.

Sample 1 — method: aptamer microarray, sandwich; form: DNA with 2'F-ANA; sample: in vitro; concentration: 200 nM; together with: Cy3 exosite-II aptamer, 400 nM; direction: higher = stronger binding; strand: GGTTGGTGTGGTTGG
Target: Prothrombin, mature alpha-thrombin (F2, Homo sapiens, UniProt P00734)
Setting: whole 15-mer aptamer, many near background
| Modification | mean fluorescence intensity [a.u.] |
| --- | --- |
| 2'F-ANA at 2 4 6 8 10 13 14 | 63.6 |
| 2'F-ANA at 1 5 9 10 11 14 15 | 46.5 |
| 2'F-ANA at 1 3 7 9 10 12 13 | 332 |
| 2'F-ANA at 1 2 4 6 7 8 9 12 13 15 | 221 |
| 2'F-ANA at 3 4 5 7 8 11 13 14 | 50.2 |
| 2'F-ANA at 3 6 9 10 13 15 | 431 |
| 2'F-ANA at 3 5 8 10 11 | 65.8 |
| 2'F-ANA at 1 3 4 5 6 7 8 11 14 15 | 50.3 |
| 2'F-ANA at 3 5 7 10 11 13 | 55.9 |
| 2'F-ANA at 4 6 9 10 11 12 | 98.6 |
| 2'F-ANA at 4 8 12 13 | 516 |
| 2'F-ANA at 1 2 4 5 6 8 10 11 12 15 | 48.9 |
| 2'F-ANA at 1 5 6 8 9 10 11 12 14 | 48 |
| 2'F-ANA at 2 5 8 11 12 13 14 | 51.7 |
| 2'F-ANA at 1 5 6 8 12 13 14 15 | 51.3 |
| 2'F-ANA at 2 6 7 8 10 11 15 | 100 |
| 2'F-ANA at 3 8 9 10 11 12 13 14 | 436 |
| 2'F-ANA at 3 4 10 | 317 |
| 2'F-ANA at 10 11 12 15 | 186 |
| 2'F-ANA at 1 2 3 5 6 7 8 11 12 14 | 48.9 |
| 2'F-ANA at 2 5 8 10 11 12 14 15 | 49.1 |
| 2'F-ANA at 1 2 3 4 6 7 8 11 13 | 126 |

Sample 2 — method: RNA Bind-n-Seq; form: RNA; sample: in vitro; concentration: 365 nM; relative to: no-protein control; direction: higher = stronger binding
Target: RNA binding protein fox-1 homolog 2, RRM domain, GST-SBP tag (RBFOX2, Homo sapiens, UniProt O43251-10, residues 100-194)
Setting: natural RNA segment, single round, ends assumed
Shared flanks, not repeated: GGGAGUUCUACAGUCCGACGAUC … UGGAAUUCUCGGGUGCCAA
Residues (chain): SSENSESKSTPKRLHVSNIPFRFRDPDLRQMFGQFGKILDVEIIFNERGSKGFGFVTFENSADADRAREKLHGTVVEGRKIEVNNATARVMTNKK
| Strand | RBNS enrichment (R) |
| --- | --- |
| CCUGCAGCUAGUCAUAGUGAAGCCCACCCUAAGGCCCUGUGAGCGCCAGCUCCCUCACAUGUACUUGGUCCAACUGUAGGUGACUGGUUAUCACAUCUUCACUGGCCCCU | 0.624 |
| GCGUCCCCUUCCUCGGGUGAGCCUGGCCUGUCCCGUUCAGCCGUUGGGCCCAGGCUUCCUCCCCUCCAAGGUGAAACACUGCAGUCCCGGUGUGGUGGCUCCCCAUGCAG | 0.328 |
| AGUGUAAUCUGCAGUGUCGUAACUAAAGUUACUGGCUUGGUCUUAUUUGCACAGUUUUUGCGUCUUGUUUGCUUCUUGCAUCUGAUUAACUAGAAUAUUUCUCUUUCCCC | 0.693 |
| UUGUCUGGGCUCAUCACCUCUCCCUAUCCCAGACUAACUUUACUGUGAAAUCCUACCACAUUCCAUGUCUGAAUUUUUGGAUUCGGGGUGGAUUUUCGUUGUCCGUGGAA | 0.343 |
| UUCUGGACAGCAAUGGAUAUUUUACUAAAAAGGAAGCUUUGAUUCCUUUUUCUCUAGGGAGAAGACAUUGUCUUGGAGAACAGCUGGCUCGAAUGGAAAUGUUCUUGUUU | 0.292 |
| CUGGGGUAUUAUAGGCAGUACUUUAAAUUGCAAAGUCUUCCGGGCCUAUUUUCCUCUACAUUUUUGUAAUUAACUCUGGGGGCUUACUUGUUUUGGCAGUACUGAAAUCA | 0.643 |
| GCCAGGGCCGUGCCAACUUAUGAAGACACUGCAGCUUGAGAGGGGCUUUGCUGAGGCUUCCCCUUGGCCAUGUGAAAGCCCGCCUUGUUGCCUGCUUUGUGCUUUCUGCA | 1.73 |
| UUUGUUUUAAGAUGGGGUUUCUCUGUGUAACAUUCCUAGCUGUCCUGGAACUUGCUUUAUAGUCCAGGCUGGCCUCACAUCCACAGAGACAUGCUAGGAUUAAGGGUGUG | 0.318 |

Sample 3 — target: CCNE1, cyclin fold, Cln2 fusion (human); method: yeast growth competition, sequencing; sample: yeast; setting: weak parent motif; relative to: not given; direction: higher = stronger binding
Starting sequence: PKN2 docking peptide (human); VSAVQKLDFSDTM
| Change | normalised enrichment score |
| --- | --- |
| A3F | 0.657 |
| L7S | -0.338 |
| M13S | 0.716 |
| L7H | 0.366 |
| A3I | 1.08 |
| K6P | -0.0593 |
| S2E | 0.14 |
| D8E | 0.819 |
| M13T | 0.857 |
| T12I | 0.729 |
| T12C | 0.83 |
| A3E | -0.061 |
| S2A | 0.851 |
| S10D | 0.703 |
| S10G | 0.709 |
| F9E | -0.051 |
| V1R | 0.536 |

Sample 4 — method: DHFR PCA, deep sequencing; sample: yeast; together with: (+)-ABA 0 µM; relative to: wild-type fitted maximum; direction: higher = stronger binding
Target: ABI1, truncated, D143A, DHFR fusion (Arabidopsis thaliana)
Setting: methotrexate growth selection, single substitutions
Starting sequence: PYL1, truncated, DHFR fusion (Arabidopsis thaliana); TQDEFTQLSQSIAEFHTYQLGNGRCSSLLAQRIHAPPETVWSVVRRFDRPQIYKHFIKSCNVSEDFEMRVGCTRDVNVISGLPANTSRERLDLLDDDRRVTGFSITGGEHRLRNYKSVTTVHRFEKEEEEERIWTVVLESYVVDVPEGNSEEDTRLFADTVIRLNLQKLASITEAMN; partner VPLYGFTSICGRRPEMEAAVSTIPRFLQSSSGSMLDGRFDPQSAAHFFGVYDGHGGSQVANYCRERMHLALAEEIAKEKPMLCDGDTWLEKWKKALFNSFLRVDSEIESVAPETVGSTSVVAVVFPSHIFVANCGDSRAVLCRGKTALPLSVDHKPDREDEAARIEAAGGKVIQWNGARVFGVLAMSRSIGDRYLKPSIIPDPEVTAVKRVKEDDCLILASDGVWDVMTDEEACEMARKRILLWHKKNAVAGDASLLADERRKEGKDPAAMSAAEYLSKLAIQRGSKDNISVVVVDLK
| Change | relative binding score |
| --- | --- |
| H16C | -6.79% |
| L29F | 0.851% |
| R90H | 1.88% |
| E67F | -2.61% |
| V100L | 0.822% |
| Y18S | 3.71% |
| S26Q | 1.65% |
| S87G | 0.698% |
| F66Q | 5.04% |
| S150E | 10.7% |
| I12Q | 3.68% |
| V70C | 3.61% |
| E139S | 2.25% |
| E14S | 2.98% |
| F56D | 0.57% |

A few entries again (sample 1):
| Modification | mean fluorescence intensity [a.u.] |
| --- | --- |
| 2'F-ANA at 3 4 5 7 8 11 13 14 | 50.2 |
| 2'F-ANA at 2 6 7 8 10 11 15 | 100 |
| 2'F-ANA at 1 2 3 4 6 7 8 11 13 | 126 |
| 2'F-ANA at 3 5 8 10 11 | 65.8 |
| 2'F-ANA at 2 4 6 8 10 13 14 | 63.6 |
| 2'F-ANA at 10 11 12 15 | 186 |
